Measured values from different studies.
Parts stem from different laboratories: compare values within a part only. Positions count from the first letter of the parent shown.

Series 1
Target: RING finger protein unkempt homolog, zinc fingers 1-6, SBP tag (UNK, Homo sapiens, UniProt Q9C0B0, residues 30-357)
Chain of UniProt Q9C0B0 (30-357, looked up): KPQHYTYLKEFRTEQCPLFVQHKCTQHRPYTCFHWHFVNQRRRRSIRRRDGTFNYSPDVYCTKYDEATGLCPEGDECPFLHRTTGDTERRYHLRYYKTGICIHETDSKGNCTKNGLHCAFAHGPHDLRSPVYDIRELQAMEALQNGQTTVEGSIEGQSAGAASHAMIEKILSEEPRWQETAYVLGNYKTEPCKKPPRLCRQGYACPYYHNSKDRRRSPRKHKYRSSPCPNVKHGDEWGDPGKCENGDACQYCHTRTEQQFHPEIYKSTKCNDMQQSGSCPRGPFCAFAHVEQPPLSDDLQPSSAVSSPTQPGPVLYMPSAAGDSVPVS
Technique: RNA Bind-n-Seq
Form: RNA
Matrix: in vitro
Tested at: 100 nM
Setting: RNA with constant flanks, vertebrate orthologous sites, ends assumed
Baseline: input RNA pool
Reading: higher = stronger binding
Quantity: bound/input enrichment
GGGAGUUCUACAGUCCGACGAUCUGUGAGGGUCUACUGACCACUCACUGUUAAUGUCUGAUAUCUGUAAACAUUUUCUGUUCUUAGUCUUUUACUUGUAUAAUUGAUGUUCUUUAAAAUUGUCAAUGUACAACAGGGCUUAUGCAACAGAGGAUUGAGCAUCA: 0.384 ratio
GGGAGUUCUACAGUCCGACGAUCUUCACUACUCCUGAGCGUGUGACUGAGGGUGAAGCAUCCACCAGUGCUUCGAGGGCGCCGUAGUAUAUUUUUGCUGCCUCAGAGUCCCCAAAGCCUUCAAGCAGAAGUGGUAGUAGAUAGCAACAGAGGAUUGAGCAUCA: 1.06 ratio
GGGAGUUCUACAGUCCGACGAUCCUCUUUUCCAGGUUGGAUGUAGUGGAAAAGUCAUAGGAAUUGAUCACAUUAAAGAGCUAGUAGAUGACUCAAUAAAUAAUGUCAGGAAGGAUGAUCCAACACUUCUGUCUUCAGGGAGAGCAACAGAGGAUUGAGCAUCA: 0.914 ratio
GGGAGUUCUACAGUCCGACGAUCCAUGUCCUUGUUACUGUGGUAUUUAAAAUAUUCACAGUAUCCACCUUUUCCAAAUGAGUCUAGUAAUAUCUUUCUCUUAUCUGUUAUUUAUCAAUUUUUCCCAGUAUUUUUAUACGGAAACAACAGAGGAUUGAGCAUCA: 1.34 ratio
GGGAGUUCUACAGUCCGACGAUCGAAAGUGGCUUCUGCUCCAUUAAAAAGUAAAAAUUGUCCUCCAAAUAUAAAACUCCUUAAUAGAUAUUUUUGAAAUUAAAAUCUUUAAAUUUUAUAAAUCAGCUGUUGCCACUACACAACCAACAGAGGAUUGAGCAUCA: 1.67 ratio
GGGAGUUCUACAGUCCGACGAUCGUCAUCUGAUUGGAUGAAGACCAUCCCAAGUUACAACCAAACAAACAGCUCCAUGGACUUUAGAAAUUACAUGAUGAGAGAUGAGAAUCUGGAACCACUGCCCCAAAACUGGGAAAUGGCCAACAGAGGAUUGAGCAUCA: 0.628 ratio
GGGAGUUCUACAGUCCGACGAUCAUAAAAAACCCCGAUUUUAGAUACUUAGGCUUUCAUUCCAGUUGGUUUUGUCUUCUUGUUUAGAUACCACUUAAAUUCUUGGCAUUUUAGUAAGAAAGCUACCUUUUUAUGGAUGUUAGCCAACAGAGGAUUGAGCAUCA: 0.532 ratio
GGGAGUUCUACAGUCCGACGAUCGCUCUAGUUCUUAAAAACCAACACUCCUAAAAGAGUUAGAAAAAAGUUUACAACGUAAUCUAGUUUACGAAGAAGUCUUGUGCUAAAAUACUUUUGUAAAAGUAUUUUUGAAUACCAUUACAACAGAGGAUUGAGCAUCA: 0.589 ratio
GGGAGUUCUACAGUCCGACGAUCGUAUGUAGAGAAAAAUUUUCAUUGACCCCCCCCCAUUGUGAAAUUCCCUAGCAAUUUAUUUAGAAUCUUAAAUUUUCUAAUUAAAGCUCAUUGUAUUAGUCAUUUUUAGCAUAAUUAAAACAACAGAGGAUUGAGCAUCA: 3.22 ratio
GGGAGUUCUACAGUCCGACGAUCAUCCUUUCAUACUGUCUCCAGCUGGUACCAUGGACUGGAUGUCUCACUGAGGACCUGCAUUUCAAAUAGUUUUUUUUUUUUAAUUGUACAAGAAGAGAUUAGAUAAAACAGCAUCUCAAACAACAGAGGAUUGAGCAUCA: 5.77 ratio
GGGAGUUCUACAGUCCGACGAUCUGUCUGCCUCAUUCUGAAAUGUACACAGUAGACCAUUUGUCAUCCAUGCUGUCCCACAAAUAGUUUUUUGUUUACGAUUUAUGACAGGUUUAUGUUACUUCUAUUUGAAUUUCUAUAUUUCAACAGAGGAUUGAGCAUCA: 1.23 ratio

Series 2
Target: Ras GTPase-activating protein-binding protein 1, full length (G3BP1, Homo sapiens, UniProt Q13283)
Chain of UniProt Q13283 (whole entry, looked up): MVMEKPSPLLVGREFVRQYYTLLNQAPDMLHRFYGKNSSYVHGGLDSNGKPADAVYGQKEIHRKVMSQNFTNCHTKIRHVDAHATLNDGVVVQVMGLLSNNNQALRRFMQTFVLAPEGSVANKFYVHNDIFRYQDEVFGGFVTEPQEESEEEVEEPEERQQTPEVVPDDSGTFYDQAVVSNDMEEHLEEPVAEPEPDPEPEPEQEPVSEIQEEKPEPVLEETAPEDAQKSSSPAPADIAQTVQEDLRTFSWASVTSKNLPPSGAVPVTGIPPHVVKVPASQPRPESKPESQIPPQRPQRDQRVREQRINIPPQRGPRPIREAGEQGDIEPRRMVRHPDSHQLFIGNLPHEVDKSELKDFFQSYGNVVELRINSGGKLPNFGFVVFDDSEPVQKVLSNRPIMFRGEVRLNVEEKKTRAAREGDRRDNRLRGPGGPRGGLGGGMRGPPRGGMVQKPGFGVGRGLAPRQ
Technique: RNA Bind-n-Seq
Form: RNA
Matrix: in vitro
Tested at: 200 nM
Setting: whole 134-nt RNA, ends assumed
With: 150 mM LiCl
Baseline: input library
Reading: higher = stronger binding
Quantity: log2 enrichment
All molecules: 7-deaza-guanosine replaces G
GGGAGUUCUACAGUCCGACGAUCCUGUGCUACACAUCGUAUGUACCGAAUCGGGGAAAAAGGGGAAAAAAAGGGGUUUUUGGGGAAAGUAUUAUGUUACGCCGUUCGGAUCUGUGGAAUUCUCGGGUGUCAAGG: -0.0198
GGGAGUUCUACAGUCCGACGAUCCUGUGCUACACAUCGUAUGUACCGAAUCGGAAAAAAAGGGGAAAAAAAGGGAAAAAAAGGGAAAGUAUUAUGUUACGCCGUUCGGAUCUGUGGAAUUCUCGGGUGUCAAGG: -0.312
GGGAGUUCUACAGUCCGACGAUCUGAUCUCCAGGAUGACAUGCGAAGAUGCCAAAUCAUCCGAGACAUGAUUGGACCGGAAAAGACUUUGGUAAAUAUCCUCUCACACCACUAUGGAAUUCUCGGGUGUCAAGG: 1.09
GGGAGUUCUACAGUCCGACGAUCAGUCCUGUGCUACACAUCGUAUGUACCGAAUCGGGGAAAAGGGAAAAGGGGAAAAGGAAAGUAUUAUGUUACGCCGUUCGGAUCUGCACUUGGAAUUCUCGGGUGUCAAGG: -0.515
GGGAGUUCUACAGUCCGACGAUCGUCCUGUGCUACACAUCGUAUGUACCGAAUCGGGGUUUUGGGGUUUUGGGGUUUUGGGGAAAGUAUUAUGUUACGCCGUUCGGAUCUGCAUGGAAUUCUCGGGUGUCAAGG: -0.00781
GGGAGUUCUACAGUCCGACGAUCGUCCUGUGCUACACAUCGUAUGUACCGAAUCGGGGAGGGGAAAAAGGGGAAAAAGGGGAAAGUAUUAUGUUACGCCGUUCGGAUCUGCACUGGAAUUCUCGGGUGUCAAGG: 0.543
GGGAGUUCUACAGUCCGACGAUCGCAGGAAGUAAAAACAAAUGGAAAUGCUUCGGAUAGUGGCAGGGGUGGGGGUUGCUAAGGAAAGGGUGGGAUGAGAGUGGGUAAAGAGUUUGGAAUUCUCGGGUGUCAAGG: 0.0861
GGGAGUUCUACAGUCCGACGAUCGUCCUGUGCUACACAUCGUAUGUACCGAAUCGGGAAAAAGGGUUUUUGGGUUUUUGGGAAAGUAUUAUGUUACGCCGUUCGGAUCUGCACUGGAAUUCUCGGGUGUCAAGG: -2.33
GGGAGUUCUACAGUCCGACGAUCCAAGUCCUGUGCUACACAUCGUAUGUACCGAAUCGGAAAAAAAGGAGGUUUUUGGAAAGUAUUAUGUUACGCCGUUCGGAUCUGCACUUCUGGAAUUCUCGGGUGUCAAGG: -0.926
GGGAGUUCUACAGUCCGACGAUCUGGCCCUGGUGGCAUGCGGGGAGGAAGAGGUGGCCUCAUGGAUCGUGGUGGUCCCGGUGGAAUGUUUAGAGGUGGCCGUGGUGGAGACAGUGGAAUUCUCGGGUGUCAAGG: 0.205
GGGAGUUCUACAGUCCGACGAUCGCAGGAAGUAAAAACAAAUGGAAAUGCUUCGGAUAGUGGCAGGGGUGGGGGUUGAUAAGGAAAGGGUGGGAUGGGAGUGGGUAAAGAGUUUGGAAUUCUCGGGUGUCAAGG: 0.225

Series 3
Target: CCNA2, cyclin fold, Cln2 fusion (human)
Technique: yeast growth competition, sequencing
Matrix: yeast
Setting: strong parent motif
Baseline: not given
Reading: higher = stronger binding
Quantity: normalised enrichment score
Parent: INSM1 docking peptide (human); PKAIRKLHFEDEV
F9S: 0.376
H8E: 5.19
F9L: 1.21
E12A: 5.05
H8R: 4.77
E12I: 4.95
I4Y: 5.49

Other studies, line by line
PhoQ, residues 284 288 289 292 302 303 AGGLSV  fold induction (PhoP, residues 12 14 15 18 19 TQCLL (Escherichia coli, UniProt P23836); Sort-seq, measured: YFP reporter; E. coli; PhoQ-PhoP variant library, with: 10 µM Mg2+; baseline: high Mg2+ state, higher = stronger signaling): 1.3

Excerpt of the above (series 3):
E12A: 5.05
F9L: 1.21
